Assay results of several laboratories.
Compare with care: the assays were run in different laboratories. ± gives the spread as reported.
STS: Steryl-sulfatase (STS, Homo sapiens, UniProt P08842)
Sequence of UniProt P08842 (whole entry, looked up): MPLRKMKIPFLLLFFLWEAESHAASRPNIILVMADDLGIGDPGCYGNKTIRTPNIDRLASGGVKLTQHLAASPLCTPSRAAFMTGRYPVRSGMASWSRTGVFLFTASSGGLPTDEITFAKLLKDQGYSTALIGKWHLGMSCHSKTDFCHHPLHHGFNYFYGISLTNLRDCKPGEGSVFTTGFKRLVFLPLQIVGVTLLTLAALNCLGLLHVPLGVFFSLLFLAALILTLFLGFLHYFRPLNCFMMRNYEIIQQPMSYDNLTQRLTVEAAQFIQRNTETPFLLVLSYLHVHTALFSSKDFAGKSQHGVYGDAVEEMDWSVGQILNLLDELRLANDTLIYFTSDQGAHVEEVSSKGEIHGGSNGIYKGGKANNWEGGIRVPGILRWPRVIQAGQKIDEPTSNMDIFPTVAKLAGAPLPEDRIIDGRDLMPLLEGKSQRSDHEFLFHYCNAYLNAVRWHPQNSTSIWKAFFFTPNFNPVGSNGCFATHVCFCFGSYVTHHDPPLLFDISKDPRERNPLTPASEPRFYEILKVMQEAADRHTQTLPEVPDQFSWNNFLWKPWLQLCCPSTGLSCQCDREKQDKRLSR
CACNA1H: Voltage-dependent T-type calcium channel subunit alpha-1H (CACNA1H, Homo sapiens, UniProt O95180)
Inward rectifier potassium channel 4: Inward rectifier potassium channel 4 (Homo sapiens, UniProt P48050)
Sequence of UniProt P48050 (whole entry, looked up): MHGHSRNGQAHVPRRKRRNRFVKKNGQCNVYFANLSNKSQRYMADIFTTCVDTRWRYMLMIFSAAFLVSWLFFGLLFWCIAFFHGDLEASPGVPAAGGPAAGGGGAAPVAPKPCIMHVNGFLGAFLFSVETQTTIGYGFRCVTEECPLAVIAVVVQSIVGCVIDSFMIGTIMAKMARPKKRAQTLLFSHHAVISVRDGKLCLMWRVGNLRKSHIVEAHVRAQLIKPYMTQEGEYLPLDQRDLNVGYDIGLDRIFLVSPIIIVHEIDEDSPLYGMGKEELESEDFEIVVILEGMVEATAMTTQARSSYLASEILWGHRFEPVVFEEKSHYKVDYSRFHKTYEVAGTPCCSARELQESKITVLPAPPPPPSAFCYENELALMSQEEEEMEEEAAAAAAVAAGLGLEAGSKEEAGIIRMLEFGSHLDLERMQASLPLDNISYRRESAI
Urease: Urease (Canavalia ensiformis, UniProt P07374)
Sequence of UniProt P07374 (whole entry, looked up): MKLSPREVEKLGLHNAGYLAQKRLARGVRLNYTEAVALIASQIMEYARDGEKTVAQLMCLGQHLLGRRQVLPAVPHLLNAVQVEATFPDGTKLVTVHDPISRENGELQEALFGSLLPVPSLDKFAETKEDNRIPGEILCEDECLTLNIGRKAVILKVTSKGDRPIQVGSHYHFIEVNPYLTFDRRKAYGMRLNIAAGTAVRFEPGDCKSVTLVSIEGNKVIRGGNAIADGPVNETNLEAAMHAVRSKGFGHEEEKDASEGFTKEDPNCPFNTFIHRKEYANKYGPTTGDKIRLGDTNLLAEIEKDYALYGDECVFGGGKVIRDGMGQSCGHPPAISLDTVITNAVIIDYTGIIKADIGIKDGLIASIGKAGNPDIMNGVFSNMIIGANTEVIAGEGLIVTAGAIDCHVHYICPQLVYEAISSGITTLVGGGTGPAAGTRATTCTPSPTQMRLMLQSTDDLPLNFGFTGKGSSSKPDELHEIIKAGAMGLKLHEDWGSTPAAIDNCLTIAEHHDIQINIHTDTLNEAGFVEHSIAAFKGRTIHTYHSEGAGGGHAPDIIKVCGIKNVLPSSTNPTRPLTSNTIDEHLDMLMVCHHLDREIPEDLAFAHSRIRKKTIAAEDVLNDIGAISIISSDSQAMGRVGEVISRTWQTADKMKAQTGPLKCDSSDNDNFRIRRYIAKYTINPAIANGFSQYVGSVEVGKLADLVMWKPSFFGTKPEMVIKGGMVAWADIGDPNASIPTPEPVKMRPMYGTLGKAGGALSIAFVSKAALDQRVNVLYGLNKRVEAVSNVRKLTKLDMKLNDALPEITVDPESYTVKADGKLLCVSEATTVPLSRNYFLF
KCNK18: Potassium channel subfamily K member 18 (KCNK18, Homo sapiens, UniProt Q7Z418)
Kir1 channel protein: Kir1 channel protein (Aedes aegypti, UniProt L0EQS9)
KCNJ13 M125R: Inward rectifier potassium channel 13 (KCNJ13, Homo sapiens, UniProt O60928, M125R)
Sequence of UniProt O60928 (whole entry, unmodified, looked up): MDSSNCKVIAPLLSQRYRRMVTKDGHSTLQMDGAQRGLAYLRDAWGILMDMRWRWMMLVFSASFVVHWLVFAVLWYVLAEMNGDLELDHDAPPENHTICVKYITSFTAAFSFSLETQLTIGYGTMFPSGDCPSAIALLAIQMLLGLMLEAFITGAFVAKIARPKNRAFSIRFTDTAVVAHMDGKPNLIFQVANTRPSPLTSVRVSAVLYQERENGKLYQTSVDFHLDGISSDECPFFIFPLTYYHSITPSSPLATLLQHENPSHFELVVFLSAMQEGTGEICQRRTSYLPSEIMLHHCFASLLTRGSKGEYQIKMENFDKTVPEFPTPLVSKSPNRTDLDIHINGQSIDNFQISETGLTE
MAL12: Alpha-glucosidase MAL12 (MAL12, Saccharomyces cerevisiae S288c, UniProt P53341)
LRRK2: Leucine-rich repeat serine/threonine-protein kinase 2 (LRRK2, Homo sapiens, UniProt Q5S007)
Sequence of UniProt Q5S007 (whole entry, looked up): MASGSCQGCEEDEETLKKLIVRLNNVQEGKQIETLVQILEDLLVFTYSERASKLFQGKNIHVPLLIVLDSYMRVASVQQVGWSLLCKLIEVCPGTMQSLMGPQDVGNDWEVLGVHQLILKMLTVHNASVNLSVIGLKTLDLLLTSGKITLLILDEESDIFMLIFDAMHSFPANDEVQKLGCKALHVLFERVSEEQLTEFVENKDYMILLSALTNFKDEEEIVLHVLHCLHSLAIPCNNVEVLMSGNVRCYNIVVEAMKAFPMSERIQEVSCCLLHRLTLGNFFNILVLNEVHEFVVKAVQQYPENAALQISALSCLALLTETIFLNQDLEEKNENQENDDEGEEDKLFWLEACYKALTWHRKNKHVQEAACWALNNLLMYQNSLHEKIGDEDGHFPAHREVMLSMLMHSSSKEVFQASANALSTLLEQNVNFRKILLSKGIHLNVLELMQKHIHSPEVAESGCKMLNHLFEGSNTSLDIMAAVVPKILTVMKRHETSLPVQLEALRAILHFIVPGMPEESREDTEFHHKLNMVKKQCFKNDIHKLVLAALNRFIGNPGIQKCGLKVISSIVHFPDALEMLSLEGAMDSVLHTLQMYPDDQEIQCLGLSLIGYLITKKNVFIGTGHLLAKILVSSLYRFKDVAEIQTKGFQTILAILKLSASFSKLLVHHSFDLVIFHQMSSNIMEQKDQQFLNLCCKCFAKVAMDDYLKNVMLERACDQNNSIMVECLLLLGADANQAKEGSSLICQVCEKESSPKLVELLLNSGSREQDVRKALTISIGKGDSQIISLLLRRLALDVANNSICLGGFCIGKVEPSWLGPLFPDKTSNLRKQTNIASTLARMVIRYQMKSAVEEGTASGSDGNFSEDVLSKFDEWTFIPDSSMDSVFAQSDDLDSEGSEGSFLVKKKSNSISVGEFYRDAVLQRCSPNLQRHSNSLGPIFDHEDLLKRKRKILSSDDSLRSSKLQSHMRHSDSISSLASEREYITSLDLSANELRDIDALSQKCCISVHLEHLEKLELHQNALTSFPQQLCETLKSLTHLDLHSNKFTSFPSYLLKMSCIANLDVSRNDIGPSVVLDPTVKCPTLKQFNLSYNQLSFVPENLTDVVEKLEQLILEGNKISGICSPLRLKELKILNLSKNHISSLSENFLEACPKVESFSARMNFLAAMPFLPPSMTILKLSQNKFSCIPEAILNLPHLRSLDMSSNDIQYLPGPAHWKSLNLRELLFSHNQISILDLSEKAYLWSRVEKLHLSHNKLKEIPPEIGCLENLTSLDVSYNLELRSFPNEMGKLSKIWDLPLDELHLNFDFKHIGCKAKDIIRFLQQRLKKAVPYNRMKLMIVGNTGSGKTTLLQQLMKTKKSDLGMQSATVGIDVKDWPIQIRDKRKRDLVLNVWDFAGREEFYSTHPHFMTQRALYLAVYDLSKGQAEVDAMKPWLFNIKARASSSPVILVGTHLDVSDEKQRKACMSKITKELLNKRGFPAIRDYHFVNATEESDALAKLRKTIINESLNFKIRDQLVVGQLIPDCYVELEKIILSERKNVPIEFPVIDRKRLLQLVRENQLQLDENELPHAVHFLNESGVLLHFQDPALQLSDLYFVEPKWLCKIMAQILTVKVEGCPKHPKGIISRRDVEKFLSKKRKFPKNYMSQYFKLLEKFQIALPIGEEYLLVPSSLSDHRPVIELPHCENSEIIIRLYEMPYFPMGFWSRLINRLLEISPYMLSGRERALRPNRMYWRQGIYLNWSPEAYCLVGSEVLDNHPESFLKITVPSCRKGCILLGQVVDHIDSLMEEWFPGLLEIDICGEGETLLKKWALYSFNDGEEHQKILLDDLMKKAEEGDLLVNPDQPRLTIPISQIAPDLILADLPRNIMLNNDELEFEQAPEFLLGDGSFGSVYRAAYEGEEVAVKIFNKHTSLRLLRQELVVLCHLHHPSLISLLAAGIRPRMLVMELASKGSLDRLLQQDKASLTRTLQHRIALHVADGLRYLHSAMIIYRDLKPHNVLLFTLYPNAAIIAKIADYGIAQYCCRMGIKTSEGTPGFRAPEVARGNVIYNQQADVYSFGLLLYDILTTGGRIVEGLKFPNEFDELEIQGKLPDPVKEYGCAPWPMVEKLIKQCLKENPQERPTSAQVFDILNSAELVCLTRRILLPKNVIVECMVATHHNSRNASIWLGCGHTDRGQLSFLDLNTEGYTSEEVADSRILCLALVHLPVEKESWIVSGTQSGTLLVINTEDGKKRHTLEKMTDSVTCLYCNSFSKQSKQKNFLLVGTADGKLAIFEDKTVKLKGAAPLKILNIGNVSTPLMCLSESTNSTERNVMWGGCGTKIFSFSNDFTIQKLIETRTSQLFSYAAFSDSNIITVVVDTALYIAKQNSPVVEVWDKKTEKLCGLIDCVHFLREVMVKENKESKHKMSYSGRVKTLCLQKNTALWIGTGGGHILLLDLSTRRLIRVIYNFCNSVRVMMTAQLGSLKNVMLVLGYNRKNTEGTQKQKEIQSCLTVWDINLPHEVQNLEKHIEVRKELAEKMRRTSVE
Sequence of UniProt Q96D96 (whole entry, unmodified, looked up): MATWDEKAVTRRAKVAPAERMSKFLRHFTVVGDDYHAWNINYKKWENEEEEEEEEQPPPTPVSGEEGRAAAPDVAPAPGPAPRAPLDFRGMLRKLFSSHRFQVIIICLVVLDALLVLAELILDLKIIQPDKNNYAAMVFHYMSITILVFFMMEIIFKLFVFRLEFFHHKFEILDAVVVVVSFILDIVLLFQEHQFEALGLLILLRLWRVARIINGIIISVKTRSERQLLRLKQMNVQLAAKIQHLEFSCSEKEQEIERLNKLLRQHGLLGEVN

Cn1nnc2ccc(C(c3ccc(OS(N)(=O)=O)cc3)n3cncn3)cc21 (racemic) — IC50 (STS; enzyme activity, inhibitor): > 10 µM
COc1c(O)cc2oc3cc(O)c(CC=C(C)C)c(O)c3c(=O)c2c1CC=C(C)C — IC50 (Sterol carrier protein 2 (Helicoverpa armigera, UniProt K7NSY9); displacement of 1,8-ANS, fluorescence; pH 7.0, 25 °C, with: 1,8-ANS 15 µM): 11.5 µM
COC(=O)C1=C(C)NC(C)=C(C(=O)OC)C1c1ccccc1[N+](=O)[O-] — IC50 (CACNA1H; calcium current, blocker, automated patch clamp; tonic block, holding -90 mV): > 3 µM
O=C(NCCSSCCNC(=O)/C(Cc1ccc(O)c(Br)c1)=N/O)/C(Cc1ccc(O)c(Br)c1)=N/O — IC50 (HDAC (Lucilia cuprina egg nuclear extract); enzyme activity, inhibitor, fluorometric): 0.015 µM
Clc1ccc(COC(Cn2ccnc2)c2ccc(Cl)cc2Cl)cc1 (stereo not drawn) — IC50 (7-alpha-hydroxycholest-4-en-3-one 12-alpha-hydroxylase (Homo sapiens, UniProt Q9UNU6); enzyme activity, inhibitor; 2 min, with: 7α-hydroxycholest-4-en-3-one 0.5 µM (Km)): 0.803 µM
Cc1cc(OCC(O)Cn2c(=N)n(Cc3ccccc3)c3ccccc32)ccc1Br (stereo not drawn) — IC50 (Inward rectifier potassium channel 4; ion flux, inhibitor, fluorescence): 5.1 µM
Cc1ccc(Cn2cc(COc3cccc(/C=N/NC(=O)COc4cc(C)cc5oc(=O)cc(C)c45)c3)nn2)cc1 — IC50 (Urease; enzyme activity, inhibitor): 14.3 ± 2.15 µM
NC(=O)N1c2ccccc2C[C@H](O)c2ccccc21 — IC50 (CACNA1H; calcium current, inhibitor, whole-cell patch clamp; HEK293; high-affinity component, with: holding -80 mV, step to -25 mV): 0.4 µM
S=C(Nc1ccccc1)N1CCc2ccccc2C1 — IC50 (Urease; enzyme activity, inhibitor, absorbance): 26.7 µM
Cn1cc(CNCC2CCN(c3ncc(C(=O)NO)cn3)CC2)c2ccccc21 — IC50 (HDAC (Lucilia cuprina egg nuclear extract); enzyme activity, inhibitor, fluorometric): 0.009 µM
[Cl-].[Cl-].[Zn+2] — IC50 (NAD(+) hydrolase SARM1 (SARM1, Homo sapiens, UniProt Q6SZW1); NAD hydrolase activity; cell lysate; with: ENAD substrate): 10 ± 3 µM
N=c1n(Cc2ccccc2)c2ccccc2n1CC(O)COc1ccc(Cc2ccccc2)cc1 (stereo not drawn) — IC50 (Inward rectifier potassium channel 4; ion flux, inhibitor, fluorescence): 2.8 µM
CCN(CC)CC(=O)Nc1c(C)cccc1C — IC50 (KCNK18; thallium flux, inhibitor; HEK293 transfected; with: carbachol 30 µM): 3410 ± 570 µM
Cc1cccc(Cc2nn(C(C)(C)C)c3ncnc(N)c23)c1 — IC50 (Ephrin type-B receptor 1 (EPHB1, Homo sapiens, UniProt P54762, T697G); phosphorylation in cells, inhibitor, western blot): 0.005 µM
COc1cccc2c1c(O)c(C(=O)N(C)c1ccc(C(F)(F)F)cc1)c(=O)n2C — IC50 (Histone deacetylase 4, with NCoR1 (HDAC4, Homo sapiens, UniProt P56524); binding to NCoR1, inhibitor, surface plasmon resonance; with: NCoR1): 10 µM
O=C(OC[C@H]1O[C@@H](OC(=O)c2cc(O)c(O)c(O)c2)[C@H](OC(=O)c2cc(O)c(O)c(O)c2)[C@@H](OC(=O)c2cc(O)c(O)c(O)c2)[C@@H]1OC(=O)c1cc(O)c(O)c(O)c1)c1cc(O)c(O)c(O)c1 — IC50 (DNA oxidative demethylase ALKBH2 (ALKBH2, Homo sapiens, UniProt Q6NS38); 1-methyladenine repair, inhibitor, HPLC; 1 h, 37 °C, with: ssDNA 16mer 5 µM): 6.9 µM
O=[N+]([O-])c1ccc(N2CCN(S(=O)(=O)c3ccc(F)cc3)CC2)cc1NCc1ncco1 — IC50 (Kir1 channel protein; ion flux, inhibitor, fluorescence): 0.177 µM
O=C(/C=C/c1cccc(S(=O)(=O)Nc2ccccc2)c1)NO — IC50 (histone deacetylase Plasmodium falciparum; Plasmodium falciparum, 3D7, nuclear extract; with: Ac-RGK(Ac)-AMC substrate): 0.215 ± 0.0153 µM
COc1ccc(C(/C=C/CN2CCC[C@@H]2[C@H](O)C(=O)O)(c2ccc(OC)cc2)c2ccc(OC)cc2)cc1 — IC50 (Sodium- and chloride-dependent GABA transporter 1 (SLC6A1, Homo sapiens, UniProt P30531); [3H]GABA uptake, inhibitor; HEK293T; 120 min preincubation, estimated, with: [3H]GABA 30 nM): 212 µM
C[C@@H]1O[C@@H](OC[C@H]2O[C@@H](OCCc3ccc(O)c(O)c3)[C@H](O)[C@@H](O[C@@H]3O[C@@H](C)[C@H](O)[C@@H](O)[C@H]3O)[C@@H]2OC(=O)/C=C/c2ccc(O)c(O)c2)[C@H](O)[C@H](O)[C@H]1O — IC50 (tyrosinase (Agaricus bisporus); enzyme activity; 30 min, pH 6.8, 37 °C, with: L-DOPA): 503 µM
C[C@@H](CNCc1ccccc1)N1C[C@H](CCCNC(=N)N)N(CCc2cccc(F)c2)C1=S — IC50 (D(1A) dopamine receptor (DRD1, Homo sapiens, UniProt P21728); receptor activation, antagonist, FLIPR): > 10 µM
COc1cc2c(cc1OC)-c1cc3ccc4c(c3c[n+]1CC2)OCO4 — IC50 (Cytochrome P450 1A2 (Cyp1a2, Rattus norvegicus, UniProt P04799); inhibitor): > 100 µM
Cc1cc(C)cc(S(=O)(=O)c2c(C(=O)NCCCCNS(=O)(=O)c3cccnc3)[nH]c3ccc(Cl)cc23)c1 — IC50 (Gag-Pol polyprotein, reverse transcriptase (gag-pol, Human immunodeficiency virus 1, UniProt P03366); reverse transcriptase activity, inhibitor, ELISA): 0.07 ± 0.009 µM
C[C@]12CC[C@@H]3c4cc(OC(F)F)c(OS(N)(=O)=O)cc4CC[C@H]3[C@@H]1CC[C@@H]2OS(N)(=O)=O — IC50 (STS; enzyme activity, inhibitor; lysate): 0.044 µM
N=c1n(Cc2ccccc2)c2ccccc2n1CC(O)COc1cccc(Cl)c1 (stereo not drawn) — IC50 (KCNJ13 M125R; ion flux, inhibitor): 5.63 µM
CCc1ccc(NC(=O)Cn2cc(CSc3nc4ccccc4cc3/C=N/NC(N)=S)nn2)cc1 — IC50 (MAL12; enzyme activity, inhibitor): ≤ 70.3 µM
N#CC1=C(N)Oc2c(c(=O)[nH]c3ccccc23)C1c1cccc(OCc2cn(Cc3ccccc3)nn2)c1 (stereo not drawn) — IC50 (MAL12; enzyme activity): 1.19 ± 0.05 µM
O=c1cc(-c2cccc3ccccc23)[nH][nH]1 — IC50 (Alkaline phosphatase, tissue-nonspecific isozyme (ALPL, Homo sapiens, UniProt P05186); enzyme activity, inhibitor, luminescence; with: 1 M DEA, 50 µM CDP-star): 7.87 ± 0.853 µM
[Cl-].[Cl-].[Zn+2] — IC50 (Voltage-gated hydrogen channel 1 (HVCN1, Homo sapiens, UniProt Q96D96, D185H/H140A/H193A); proton current, inhibitor, whole-cell voltage clamp; human cells; pH 6.5, test pulse 100 mV): 762 µM
CC12CC3CC(C)(C1)CC(N)(C3)C2 — IC50 (Glutamate receptor 2, with TARP gamma-2 (Gria2, Rattus norvegicus, UniProt P19491, Q607E); ion current, inhibitor, whole-cell patch clamp; Q607E with gamma-2, -100 mV, with: glutamate 10 mM): 5.7 ± 1 µM
Cc1cc(C)cc(OCC(O)Cn2c(=N)n(Cc3ccccc3)c3ccccc32)c1 (stereo not drawn) — IC50 (Inward rectifier potassium channel 4; ion flux, inhibitor, fluorescence): 3.65 µM
Nc1nc2ccc(OC(F)(F)F)cc2s1 — IC50 (Scn2a (Mus musculus, UniProt B1AWN6); sodium current, inhibitor; N1E-115; 0.1 Hz stimulation): 67 ± 9 µM
CCc1nccn1CC(=O)c1ccc(O)c(O)c1 — IC50 (Alkaline phosphatase, placental type (Homo sapiens, UniProt P05187); enzyme activity, inhibitor, luminescence, CDP-star substrate; different enzyme concentrations): 0.8 µM
CC[C@@H](C)c1nc2cc(Nc3ccnc4ccc(S(=O)(=O)C(C)C)cc34)ccc2s1 — IC50 (Receptor-interacting serine/threonine-protein kinase 3 (RIPK3, Homo sapiens, UniProt Q9Y572); enzyme activity, inhibitor, ADP detection): 0.003 µM
C#CCOc1ccc2oc(-c3ccccc3)cc(=O)c2c1 — IC50 (Cytochrome P450 2B1 (Cyp2b1, Rattus norvegicus, UniProt P00176); enzyme activity, inhibitor; supersomes; with: pentoxyresorufin 5 µM): > 10 µM
Cn1cc(-c2c[nH]c3ncnc(N4CCOCC4)c23)cc1C#N — IC50 (LRRK2; AlphaScreen; wild type, with: ATP 9.5 µM): 0.006 µM
N=c1n(Cc2ccccc2)c2ccccc2n1CC(O)COc1ccc(Cl)cc1Cl (stereo not drawn) — IC50 (Inward rectifier potassium channel 4; ion flux, inhibitor, fluorescence): 5.33 µM
Cc1ccc2nc(C3CCC3)n(-c3ccc4[nH]ncc4c3)c2n1 — IC50 (GRIA1/CACNG8 (Homo sapiens, UniProt P42261+Q8WXS5); calcium influx, antagonist, FLIPR; HEK293 expressing GluA1o; with: glutamate 100 µM): 0.00126 µM
O=S(=O)(Nc1cccc(-c2nnn[nH]2)c1)c1cc(Cl)c(Cl)cc1Cl — IC50 (Leucyl-cystinyl aminopeptidase (LNPEP, Homo sapiens, UniProt Q9UIQ6); enzyme activity, inhibitor, fluorescence): 0.54 µM
NS(=O)(=O)Oc1ccc(C(c2ccc(Cl)cc2)n2cncn2)cc1Br (racemic) — IC50 (STS; enzyme activity, inhibitor; JEG-3; 1 h, with: [3H]oestrone sulfate): 1.4 ± 0.234 µM
CCN(CC)C(=S)S — IC50 (Carbamate kinase (Giardia intestinalis, UniProt A8BB85); enzyme activity, ATP luminescence): 16.3 µM
CC(=O)Nc1ccc(O)cn1 — IC50 (Prostaglandin G/H synthase 1 (PTGS1, Ovis aries, UniProt P05979); enzyme activity, inhibitor; pH 8): 399 µM
O=C1c2c(O)cc(O)cc2O[C@H](c2cc(O)c(O)c(O)c2)[C@H]1O — IC50 (GABAA receptor benzodiazepine site, rat; binding, radioligand displacement; cortex membranes; with: [3H]flunitrazepam 1 nM): 4.36 µM
N=c1n(Cc2ccccc2)c2ccccc2n1CC(O)COc1ccccc1 (stereo not drawn) — IC50 (KCNJ13 M125R; ion flux, inhibitor): 4.47 µM
CC(C)c1ccc2c(c1)c(SC(C)(C)C)c(CC(C)(C)C(=O)O)n2Cc1ccc(Cl)cc1 — IC50 (KCNK18; ion flux, inhibitor): 10 µM
O=[N+]([O-])c1ccc(N2CCN(S(=O)(=O)c3ccc(F)cc3)CC2)cc1NCc1nccs1 — IC50 (Kir1 channel protein; ion flux, inhibitor, fluorescence): 0.496 µM
N#Cc1nc2c(nc1C#N)-c1ccc(Cl)cc1C2=O — IC50 (Ubiquitin carboxyl-terminal hydrolase 7 (USP7, Homo sapiens, UniProt Q93009)): 5.97 µM
O=C(NNC(=O)c1ccc(CNS(=O)(=O)c2ccc(F)c(Cl)c2)cc1)c1ccccc1 — IC50 (Glutamate NMDA receptor; Grin1/Grin2a (Grin1/Grin2a, Rattus norvegicus, UniProt P35439+Q00959, V783F); ion current, two-electrode voltage clamp; oocytes): 1.9 µM
O=C1Nc2ccc(I)cc2/C1=C/c1cc(Br)c(O)c(Br)c1 — IC50 (LRRK2; LRRKtide phosphorylation, inhibitor; 25 °C, with: 1 µM ATP): ~0.5 µM
Cn1cnnc1SCC(=O)C12CC3CC(CC(C3)C1)C2 — IC50 (Cytochrome P450 3A4 (CYP3A4, Homo sapiens, UniProt P08684); enzyme activity, inhibitor, fluorescence): > 100 µM
[Zn+2] — IC50 (Transient receptor potential cation channel subfamily V member 1 (Trpv1, Rattus norvegicus, UniProt O35433); transporter uptake, inhibitor, radiometric): 27 µM
CCc1oc2ccccc2c1C(=O)c1cc(Br)c(OC)c(Br)c1 — IC50 (Solute carrier family 22 member 12 (SLC22A12, Homo sapiens, UniProt Q96S37); human cells): 1.2 µM
N=c1n(Cc2ccccc2)c2ccccc2n1CC(O)COc1cc(F)cc(F)c1 (stereo not drawn) — IC50 (KCNJ13 M125R; ion flux, inhibitor): 4.2 µM
S=C(Nc1ccc(I)cc1)N1CCc2ccccc2C1 — IC50 (Urease; enzyme activity, inhibitor, absorbance): 50.6 µM
